Measurements pooled from the literature.
Compare with care: the assays were run in different laboratories. “And” joins repeats or separate records; there may be more than shown. Numbers after ± are the reported error.
UniProt Q00987, sequence (whole entry, looked up): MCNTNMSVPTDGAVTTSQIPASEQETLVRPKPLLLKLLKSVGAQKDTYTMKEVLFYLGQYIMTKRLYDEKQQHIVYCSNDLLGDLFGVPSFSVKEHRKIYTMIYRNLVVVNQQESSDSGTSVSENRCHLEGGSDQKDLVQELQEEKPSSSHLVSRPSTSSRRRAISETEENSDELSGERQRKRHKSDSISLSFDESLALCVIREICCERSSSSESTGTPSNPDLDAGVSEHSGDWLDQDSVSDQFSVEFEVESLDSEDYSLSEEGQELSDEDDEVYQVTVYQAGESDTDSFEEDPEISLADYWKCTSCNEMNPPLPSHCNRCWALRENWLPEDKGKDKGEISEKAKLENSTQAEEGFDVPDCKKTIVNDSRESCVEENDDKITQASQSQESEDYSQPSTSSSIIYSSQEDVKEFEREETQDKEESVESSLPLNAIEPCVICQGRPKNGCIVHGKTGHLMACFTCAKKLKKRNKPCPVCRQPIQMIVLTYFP
UniProt Q9DB29, sequence (whole entry, looked up): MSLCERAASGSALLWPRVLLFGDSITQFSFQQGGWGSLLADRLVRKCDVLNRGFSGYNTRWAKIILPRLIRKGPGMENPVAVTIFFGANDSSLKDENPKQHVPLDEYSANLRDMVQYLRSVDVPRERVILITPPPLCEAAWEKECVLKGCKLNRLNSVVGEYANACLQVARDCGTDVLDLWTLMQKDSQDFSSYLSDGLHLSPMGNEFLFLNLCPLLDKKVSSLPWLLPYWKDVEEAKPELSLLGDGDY
UniProt Q9Y2J8, sequence (whole entry, looked up): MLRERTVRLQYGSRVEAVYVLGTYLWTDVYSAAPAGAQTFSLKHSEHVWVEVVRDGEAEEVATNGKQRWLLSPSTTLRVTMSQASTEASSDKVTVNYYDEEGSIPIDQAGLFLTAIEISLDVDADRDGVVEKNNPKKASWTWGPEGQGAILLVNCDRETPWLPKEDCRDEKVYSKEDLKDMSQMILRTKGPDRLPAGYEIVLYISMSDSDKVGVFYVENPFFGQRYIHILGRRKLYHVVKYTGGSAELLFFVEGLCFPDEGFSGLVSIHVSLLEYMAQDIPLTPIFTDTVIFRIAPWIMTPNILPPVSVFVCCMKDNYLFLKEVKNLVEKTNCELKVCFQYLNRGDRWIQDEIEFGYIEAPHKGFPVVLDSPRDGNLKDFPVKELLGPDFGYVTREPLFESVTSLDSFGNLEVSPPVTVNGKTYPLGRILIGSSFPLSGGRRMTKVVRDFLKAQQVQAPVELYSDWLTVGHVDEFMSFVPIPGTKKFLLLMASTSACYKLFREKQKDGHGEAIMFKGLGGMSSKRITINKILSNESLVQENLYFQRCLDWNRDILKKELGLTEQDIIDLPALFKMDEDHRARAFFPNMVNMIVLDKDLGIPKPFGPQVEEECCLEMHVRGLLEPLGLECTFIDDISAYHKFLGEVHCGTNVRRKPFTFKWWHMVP
UniProt P08581, sequence (whole entry, looked up): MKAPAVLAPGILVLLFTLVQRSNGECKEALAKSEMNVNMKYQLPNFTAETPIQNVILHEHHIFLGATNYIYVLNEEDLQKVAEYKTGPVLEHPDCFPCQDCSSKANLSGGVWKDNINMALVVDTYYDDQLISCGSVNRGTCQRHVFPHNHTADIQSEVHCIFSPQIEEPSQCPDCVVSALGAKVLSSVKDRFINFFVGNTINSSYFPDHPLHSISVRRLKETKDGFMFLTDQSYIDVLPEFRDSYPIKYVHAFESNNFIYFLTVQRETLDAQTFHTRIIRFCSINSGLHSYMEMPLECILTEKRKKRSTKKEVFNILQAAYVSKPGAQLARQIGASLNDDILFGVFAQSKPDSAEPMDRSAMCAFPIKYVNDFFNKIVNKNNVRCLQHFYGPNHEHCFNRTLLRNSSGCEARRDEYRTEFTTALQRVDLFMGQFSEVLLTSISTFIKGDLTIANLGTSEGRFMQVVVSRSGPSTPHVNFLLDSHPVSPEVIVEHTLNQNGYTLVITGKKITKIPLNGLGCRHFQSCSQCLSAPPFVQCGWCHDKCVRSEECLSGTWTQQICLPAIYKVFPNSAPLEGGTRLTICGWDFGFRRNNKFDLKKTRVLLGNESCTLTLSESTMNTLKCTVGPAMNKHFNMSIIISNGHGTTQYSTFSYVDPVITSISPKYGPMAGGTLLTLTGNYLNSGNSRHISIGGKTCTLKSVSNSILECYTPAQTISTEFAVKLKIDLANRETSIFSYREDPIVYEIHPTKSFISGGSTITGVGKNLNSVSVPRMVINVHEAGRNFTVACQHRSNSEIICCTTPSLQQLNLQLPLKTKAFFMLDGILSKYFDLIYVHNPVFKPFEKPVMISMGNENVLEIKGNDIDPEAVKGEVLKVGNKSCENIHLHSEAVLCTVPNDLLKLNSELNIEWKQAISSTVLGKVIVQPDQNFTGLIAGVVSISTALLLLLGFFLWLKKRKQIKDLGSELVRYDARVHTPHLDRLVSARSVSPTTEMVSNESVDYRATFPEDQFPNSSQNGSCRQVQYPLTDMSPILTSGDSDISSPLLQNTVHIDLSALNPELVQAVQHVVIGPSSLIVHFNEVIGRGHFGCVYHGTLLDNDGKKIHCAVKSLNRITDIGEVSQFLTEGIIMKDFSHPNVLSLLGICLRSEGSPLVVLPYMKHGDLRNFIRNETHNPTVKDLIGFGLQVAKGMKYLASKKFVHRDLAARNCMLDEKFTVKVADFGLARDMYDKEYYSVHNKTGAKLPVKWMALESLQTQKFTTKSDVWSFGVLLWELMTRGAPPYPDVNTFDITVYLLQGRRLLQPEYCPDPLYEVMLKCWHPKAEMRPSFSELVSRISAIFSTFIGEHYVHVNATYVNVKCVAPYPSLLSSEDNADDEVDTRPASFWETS
UniProt P21554, sequence (whole entry, looked up): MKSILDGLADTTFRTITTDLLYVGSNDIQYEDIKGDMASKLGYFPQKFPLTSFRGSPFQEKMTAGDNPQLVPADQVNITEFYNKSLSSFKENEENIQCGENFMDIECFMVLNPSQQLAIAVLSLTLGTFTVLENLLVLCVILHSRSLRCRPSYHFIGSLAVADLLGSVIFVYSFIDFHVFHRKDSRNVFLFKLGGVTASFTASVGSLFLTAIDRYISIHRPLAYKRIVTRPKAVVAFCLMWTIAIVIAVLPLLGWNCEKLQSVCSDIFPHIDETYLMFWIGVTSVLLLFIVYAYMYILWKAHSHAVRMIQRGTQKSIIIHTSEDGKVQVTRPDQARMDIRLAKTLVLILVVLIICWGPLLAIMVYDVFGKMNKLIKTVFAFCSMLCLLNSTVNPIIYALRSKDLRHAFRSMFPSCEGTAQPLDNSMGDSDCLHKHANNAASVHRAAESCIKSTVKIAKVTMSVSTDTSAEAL
UniProt O75844, sequence (whole entry, looked up): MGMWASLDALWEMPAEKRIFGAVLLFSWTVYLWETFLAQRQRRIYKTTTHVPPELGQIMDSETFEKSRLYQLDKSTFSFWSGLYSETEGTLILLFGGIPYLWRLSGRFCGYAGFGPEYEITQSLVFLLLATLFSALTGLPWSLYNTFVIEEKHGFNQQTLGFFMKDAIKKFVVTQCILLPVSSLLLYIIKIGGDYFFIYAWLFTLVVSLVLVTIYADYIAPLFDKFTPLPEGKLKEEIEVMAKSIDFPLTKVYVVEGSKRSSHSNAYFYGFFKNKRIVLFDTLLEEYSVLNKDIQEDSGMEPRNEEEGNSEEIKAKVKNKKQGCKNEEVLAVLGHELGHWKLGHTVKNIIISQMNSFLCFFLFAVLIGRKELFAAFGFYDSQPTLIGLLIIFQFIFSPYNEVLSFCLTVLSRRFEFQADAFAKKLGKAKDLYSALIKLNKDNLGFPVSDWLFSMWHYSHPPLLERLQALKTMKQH
UniProt Q9NR20, sequence (whole entry, looked up): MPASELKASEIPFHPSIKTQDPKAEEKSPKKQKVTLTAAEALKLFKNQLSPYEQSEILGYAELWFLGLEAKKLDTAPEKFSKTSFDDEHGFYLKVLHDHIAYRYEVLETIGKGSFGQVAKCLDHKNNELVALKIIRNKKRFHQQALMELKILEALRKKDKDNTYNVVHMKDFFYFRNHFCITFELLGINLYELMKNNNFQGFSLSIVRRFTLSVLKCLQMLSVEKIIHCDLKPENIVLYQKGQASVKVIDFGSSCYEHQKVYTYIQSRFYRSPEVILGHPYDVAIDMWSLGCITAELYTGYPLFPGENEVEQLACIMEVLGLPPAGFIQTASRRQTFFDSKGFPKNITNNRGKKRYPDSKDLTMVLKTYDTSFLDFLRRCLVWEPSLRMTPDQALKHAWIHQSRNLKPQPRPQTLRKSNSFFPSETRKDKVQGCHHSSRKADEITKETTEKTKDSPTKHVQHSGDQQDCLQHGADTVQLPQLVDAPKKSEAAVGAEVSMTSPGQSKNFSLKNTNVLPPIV
UniProt O15075, sequence (whole entry, looked up): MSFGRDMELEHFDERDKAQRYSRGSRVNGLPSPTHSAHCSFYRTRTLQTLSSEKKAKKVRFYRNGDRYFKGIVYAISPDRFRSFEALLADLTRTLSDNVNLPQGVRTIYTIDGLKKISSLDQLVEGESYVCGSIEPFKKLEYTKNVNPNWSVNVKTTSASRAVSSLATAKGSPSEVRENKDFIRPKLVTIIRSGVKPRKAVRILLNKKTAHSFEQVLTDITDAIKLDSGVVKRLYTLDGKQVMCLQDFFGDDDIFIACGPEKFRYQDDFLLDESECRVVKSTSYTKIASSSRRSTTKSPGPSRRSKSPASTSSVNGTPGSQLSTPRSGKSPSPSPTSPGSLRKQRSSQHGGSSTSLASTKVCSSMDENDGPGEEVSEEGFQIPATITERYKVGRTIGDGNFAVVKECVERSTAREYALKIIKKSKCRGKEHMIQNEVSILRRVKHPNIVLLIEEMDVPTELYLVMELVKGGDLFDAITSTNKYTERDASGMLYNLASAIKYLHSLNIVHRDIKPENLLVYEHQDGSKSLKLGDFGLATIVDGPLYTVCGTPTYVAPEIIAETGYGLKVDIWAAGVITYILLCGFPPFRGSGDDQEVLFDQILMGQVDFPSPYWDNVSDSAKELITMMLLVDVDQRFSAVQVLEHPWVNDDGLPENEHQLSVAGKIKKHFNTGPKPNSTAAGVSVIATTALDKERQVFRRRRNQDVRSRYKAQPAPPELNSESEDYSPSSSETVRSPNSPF

For `CC(C)CC(O)(CC(C)C)c1cn(C(=O)N2CCCC2)nn1`, “SILAC activity ratio” read 1.22 and 1.19 and 1.12 and 1.16 and 1.28 (Isoamyl acetate-hydrolyzing esterase 1 homolog (Iah1, Mus musculus, UniProt Q9DB29); probe labelling, inhibitor, competitive ABPP-SILAC, measured: Iah1; mouse T cells; concentration not given, 4 h, single peptide; reference: treated over DMSO cells, lower = stronger inhibition).
With `N[C@H](C(=O)N1CCCC1)C1CCN(c2nccc3c(-c4ncc(Cl)cc4Cl)cccc23)CC1` the melting temperature was 70.5 °C (PADI2 (Homo sapiens, UniProt Q9Y2J8); thermal shift; 30 µM).
The maximal efficacy of `COC(=O)[C@@H](NC(=O)c1nn(Cc2ccc(F)cc2)c2cc(OCCCCNC(=N)N)ccc12)C(C)(C)C` is reported as 69% (CNR1 (Homo sapiens, UniProt P21554); β-arrestin-2 recruitment, agonist, BRET).
`CCOC(=O)[C@@H]1Cc2c(cc([N+](=O)[O-])cc2[N+](=O)[O-])[C@H](O)[C@]12C(=O)Nc1ccc(Br)cc12` has a remaining binding of 72% (IGF1R (Homo sapiens, UniProt P08069); binding, competition with immobilised ligand; 0.1 µM).
With `O=C(O)c1ccc(-c2nc(-c3ccccc3Cl)c3sccn23)cc1` the specific binding was 93.3% and 96.8% (Grin1 (Rattus norvegicus, UniProt P35439); radioligand binding, safety screen panel; 10 µM; reference: control).
`COCC1CCCCN1C(=O)n1cc(C(O)(c2ccccc2)c2ccccc2)nn1` (stereo not drawn) — result for “SILAC activity ratio”: 1.46 (Platelet-activating factor acetylhydrolase IB subunit alpha1 (Pafah1b3, Mus musculus, UniProt Q61205); probe labelling, inhibitor, competitive ABPP-SILAC, measured: Pafah1b3; mouse T cells; concentration not given, 4 h, protein level; reference: treated over DMSO cells, lower = stronger inhibition).
`O=C(CN1CN(c2ccccc2)C2(CCN(C(=O)c3cnc4[nH]ncc4c3)CC2)C1=O)NCC(F)(F)F` gave an inhibition of under 50% (EGFR (Homo sapiens, UniProt P00533, L861Q); inhibitor; concentration not given).
`COc1cc(Nc2nc(C)cc(-c3cnn4nc(OC)ccc34)n2)cc(C(F)(F)F)c1` gave a remaining binding of 100% (CRK2 (Plasmodium falciparum, UniProt P61075); KINOMEscan binding; 1000 nM; reference: control).
`CS(C)(=O)=Nc1ccc(-c2ccc(-c3nc4cc(O[C@@H]5CO[C@H]6[C@@H]5OC[C@H]6O)[nH]c4cc3F)cc2)cc1` has an inhibition of 17% (MC4R (Homo sapiens, UniProt P32245); calcium signal, antagonist; 10 µM).
`CC(C)OC(=O)OCOC(=O)C(CCC(=O)O)CP(=O)(OCOC(=O)OC(C)C)OCOC(=O)OC(C)C` (stereo not drawn): “reduction of tracer uptake” 20% (Glutamate carboxypeptidase 2 (Rattus norvegicus, UniProt P70627); PET; rat, kidney; intravenous, 1 mg/kg, 30 min before tracer, together with: [68Ga]Ga-PSMA tracer; reference: controls).
For `CN(C)[C@H]1C[C@@]23CC[C@@]4(O2)C(=CC[C@]2(C)[C@@H](c5ccc6ccncc6c5)CC[C@H]24)C=C3[C@@H](O)[C@@H]1O`, the inhibition was -5% (PKN2 (Homo sapiens, UniProt Q16513); ATP probe labelling, inhibitor, KiNativ profiling; 1 µM).
The reactivity ratio of `C#CCCCCOc1ccc2c(c1)CCCN2C(=O)CCl` is reported as 1.47 (CAAX prenyl protease 1 homolog (Homo sapiens, UniProt O75844); mass spectrometry profiling, measured: ZMPSTE24; H460 cell lysate; 100 µM over 10 µM, UniProt O75844; reference: high over low concentration).
For `CC[C@H](C)[C@@H]1NC(=O)[C@H](CC(C)C)NC(=O)CNC(=O)[C@H](CCCNC(=N)N)NC(=O)[C@H](Cc2c[nH]c3ccccc23)NC(=O)[C@H](CCSC)NC(=O)[C@H](CO)NC(=O)[C@H](CCC(=O)O)NC(=O)[C@H](Cc2ccccc2)NC(=O)[C@H](CC(=O)O)NC(=O)[C@H]([C@@H](C)O)NC(=O)CNC(=O)[C@H](CCC(=O)O)NC(=O)[C@H]([C@@H](C)O)NC(=O)CNC(=O)[C@H](CC(=O)O)NC1=O`, the AlphaLISA signal was 5440 a.u. and 5200 a.u. and 5340 a.u. (MDM2 (Homo sapiens, UniProt Q00987); MDM2-ligand binding, inhibitor, AlphaLISA competition; 0.3906 µM, together with: GST-tagged MDM2 ligand; lower = stronger inhibition).
With `CC(C)[C@H]1NC(=O)C[C@H]2/C=C/CCSSC[C@@H](NC1=O)C(=O)N[C@H](Cc1cccc3ccccc13)C(=O)NCC(=O)O2` the inhibition was 12.6% (MET (Homo sapiens, UniProt P08581); enzyme activity, inhibitor; 10 µM).
`O=C1NC(=O)c2c1c1cc(F)c[n+]3c1c1c2c2cc(O)ccc2[n]1[Ru-4]312([N]=C=S)[S+]3CC[S+]1CC[S+]2CC3` (stereo not drawn) has a remaining activity of 110% (CDC42BPA (Homo sapiens, UniProt Q5VT25); enzyme activity; 100 nM, human enzyme, together with: 10 µM ATP; reference: untreated).
`NCC(=O)N[C@H](Cc1ccccc1)C(=O)N[C@@H](Cc1ccccc1)C(=O)N[C@@H](CCC(=O)O)C(=O)O` — result for “fold loss of potency”: over 60 fold (uncharacterized protein (Aplysia californica, UniProt A0ABM0K1K5); IP1 accumulation; CHO-K1 transfected).
`CC(=O)N[C@@H](CCC(N)=O)C(=O)N[C@@H](CC1CCCCC1)C(=O)N[C@@H](CNC(=O)CCl)C(=O)N[C@@H](CC(C)C)C(=O)N[C@@H](Cc1ccccc1)C(=O)O` has a -TΔS of 2.3 kcal/mol (Beta sliding clamp (Escherichia coli, UniProt P0A988); binding, isothermal titration calorimetry; 37 °C).
With `CCCCC/C=C\C/C=C\C/C=C\C/C=C\CCCC(=O)NCCc1ccc(O)c(O)c1` the Hill coefficient was 1.72 ± 0.61 (Trpv1 (Mus musculus, UniProt Q704Y3, D577E); ion current, agonist, whole-cell patch clamp; D577E).
The inhibition of `C[C@H](NCc1ccc(-c2ccc(C(F)(F)F)cc2)cc1)C(N)=O` is reported as 33% (DCLK1 (Homo sapiens, UniProt O15075); cell-free assay, competition with immobilised ligand; 1 µM).
`O=C1NC2(CC2)COc2ncc(F)cc2[C@H]2COCCN2c2ccn3ncc1c3n2`: “mean corpuscular volume” 63.8 ± 3.5 fL (Sprague-Dawley rat, male, blood; oral, 2.5 mg/kg/day, 4 weeks, end of treatment, subacute toxicity).
`CN(/N=C/c1ccccc1C(=O)O)c1nc(-c2ccccc2Cl)cs1` has an inhibition of -11.3% (DYRK4 (Homo sapiens, UniProt Q9NR20); enzyme activity, inhibitor; 1 µM).
`C[C@]1(COC(=O)Cc2ccc(O)c(O)c2)[C@H](C(=O)O)N2C(=O)/C(=C/c3ccccn3)[C@H]2S1(=O)=O` has a kinact of 0.022 ± 0.002 s⁻¹ (Beta-lactamase (blaOXA-33, Acinetobacter baumannii, UniProt Q8RLA6); inhibitor).
The Emax of `CC[C@H](C)[C@H](NC(=O)[C@H](CCCNC(=N)N)NC(=O)[C@H](CCCNC(=N)N)NC(=O)[C@H](CC(C)C)NC(=O)[C@H](Cc1ccccc1)NC(=O)CNC(=O)CNC(=O)[C@@H](N)Cc1ccc(O)cc1)C(=O)N[C@@H](CCCNC(=N)N)C(=O)N1CCC[C@H]1C(=O)N[C@@H](CCCCN)C(=O)N[C@@H](CC(C)C)C(=O)N[C@@H](CCCCN)C(=O)O` is reported as 68.6% (GPR139 (Homo sapiens, UniProt Q6DWJ6); Gαi2 activation, agonist, BRET; HEK293T/17; 40 µM).
For `COc1ccc2cc1Oc1cc3c(cc1OC)CCN(C)C3Cc1ccc(cc1)Oc1c(O)c(OC)cc3c1C(C2)N(C)CC3` (stereo not drawn), the kon was 575 M⁻¹ s⁻¹ (Glideosome-associated protein 50 (GAP50, Plasmodium falciparum, UniProt Q8I2X3); binding, surface plasmon resonance; 1:1 binding model).
